Experimental data collected from several papers.
Parts stem from different laboratories: compare values within a part only. Substitutions count along the parent as printed.

Study 1 — technique: DHFR PCA, deep sequencing; medium: yeast; added: (+)-ABA 0.032 µM; relative to: wild-type fitted maximum; direction: higher = stronger binding
Target: ABI1, truncated, D143A, DHFR fusion (Arabidopsis thaliana)
Notes: methotrexate growth selection, single substitutions
Parent: PYL1, truncated, DHFR fusion (Arabidopsis thaliana); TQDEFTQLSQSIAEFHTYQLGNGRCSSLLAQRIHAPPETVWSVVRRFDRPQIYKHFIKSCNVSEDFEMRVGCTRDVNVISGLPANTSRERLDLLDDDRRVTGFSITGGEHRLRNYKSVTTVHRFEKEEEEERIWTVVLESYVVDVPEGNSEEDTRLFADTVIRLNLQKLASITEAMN
Substitution | relative binding score [%]
I33L | 3.56
T6D | 37.6
I133H | 21
R155M | 7.32
S11V | 33.2
E125T | 36.2
E14N | -2.83
H34Q | 28.5
L169G | -1.81
L29D | 3.4
A30G | 8.77
N77I | 41.8
N22L | 18.4
A170L | -9.49
N61E | 45.1
S27V | 2.5
V44P | -3.59
G23P | -2.42
S42D | 16.1
T101S | 1.97

Study 2 — target: CCNB3, cyclin fold, Cln2 fusion (human); technique: yeast growth competition, sequencing; medium: yeast; notes: weak parent motif; relative to: not given; direction: higher = stronger binding
Parent: RBL1 docking peptide (human); GSAKRRLFGEDPP
Substitution | normalised enrichment score
GSAKRRLFGEDDP [P12D] | 0.777
GSAKRRLYGEDPP [F8Y] | 0.232
GSAKRRLFGEIPP [D11I] | 0.556
DSAKRRLFGEDPP [G1D] | 0.671
ESAKRRLFGEDPP [G1E] | 0.717
GHAKRRLFGEDPP [S2H] | 0.658
GSAKRRLFGYDPP [E10Y] | 0.251
GSAKRRLFGRDPP [E10R] | 0.396
GSASRRLFGEDPP [K4S] | 0.431
GSAKRRLFGERPP [D11R] | 0.213
GSAKNRLFGEDPP [R5N] | 0.432
GSAKARLFGEDPP [R5A] | 0.0866
GSAKRRLFGEDPN [P13N] | 0.527
GSALRRLFGEDPP [K4L] | -0.104
GSAKRRLFWEDPP [G9W] | 1.14
GSYKRRLFGEDPP [A3Y] | 0.365
GSAKRKLFGEDPP [R6K] | 1.11
GSAKHRLFGEDPP [R5H] | 0.306
GSAKLRLFGEDPP [R5L] | -0.00989
GSAKRRLFGEQPP [D11Q] | 0.469
GSAKRRLCGEDPP [F8C] | 0.28
GSAKRRLFKEDPP [G9K] | 0.676
GSAPRRLFGEDPP [K4P] | 0.239
GSAKRVLFGEDPP [R6V] | 0.71
GSAKSRLFGEDPP [R5S] | 0.551

Study 3 — technique: competition protein-binding microarray; form: double-stranded DNA, one strand shown; medium: in vitro; tested at: 2 µM; added: Pho4 competitor, 0.05 µM; direction: higher = stronger binding; all sequences stand within: … GTCTTGATTCGCTTGACGCTGCTG
Target: Centromere-binding protein 1, full length, His-tagged (CBF1, Saccharomyces cerevisiae, UniProt P17106, residues 1-351)
Sequence of UniProt P17106 (whole entry, looked up): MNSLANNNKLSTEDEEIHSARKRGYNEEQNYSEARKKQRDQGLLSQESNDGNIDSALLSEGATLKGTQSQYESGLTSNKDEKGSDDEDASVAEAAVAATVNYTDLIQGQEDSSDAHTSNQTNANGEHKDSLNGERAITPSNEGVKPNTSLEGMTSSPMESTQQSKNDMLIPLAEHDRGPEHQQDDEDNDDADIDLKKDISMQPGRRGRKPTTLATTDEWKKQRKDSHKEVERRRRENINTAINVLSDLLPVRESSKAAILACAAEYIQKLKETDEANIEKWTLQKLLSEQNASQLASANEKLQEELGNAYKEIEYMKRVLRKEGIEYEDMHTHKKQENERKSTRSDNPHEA
Notes: whole 60-bp probe, lowest competitor level
Strand | fluorescence intensity
CGGGGTTAAGTTTGGTTAGTGGGTGGCTTGCAGCAG | 69.7 a.u.
GTCTTGTCTCATTGCAGCGTGGGTGTCCCCACTTCA | 78.4 a.u.
CTTCTGTAAATTTTTCACGTGCGTTGACGCGCCCCG | 687 a.u.
TGCGCAACAACTTGACGAGTGGGTGTATGTCTAGAA | 68.8 a.u.
CTACTGGAGATGCAGGTCGTGATGGACTTTTAGCTT | 76.7 a.u.
AGCCGGCTATTTACCCACGTCCGGTATCTCAAAGGA | 55.5 a.u.
ACCGCTGAAACCAAACATGTGATGAATTGGTCAACA | 630 a.u.
TCCGGGTTATACCATCACGTGATGGTAAATCCAAAT | 13400 a.u.
AAAGCGGTAATTTGGATCGTGGGTGCAGATATCTAT | 71.5 a.u.
CGTCCTAGTGATTTTCACGTGTAGTCCATGAGGAAG | 747 a.u.
GATCTTGGATACGACCGTGTGACGCCCGAGACTCTT | 58.3 a.u.
CTTCTGTAAATTTGGCGAGTGGGTGGACGCGCCCCG | 85.9 a.u.
CTAACGAAGGTTTGTGGAGTGGGTGACAAGCCAAGT | 60.2 a.u.
CGTCCTAGTGATTGGAGCGTGGGTGCCATGAGGAAG | 98.8 a.u.
CTTTATGAGTACCGTCACGTTTCTTGTTGAAGATAA | 498 a.u.
AAAGCGGTAATTTGTCACAATACTTCACATATCTAT | 104 a.u.
TTTGTCCTCGCACTCCGCGTGGTGAACTTGTTCTTG | 60.4 a.u.
CTAACGAAGGTTTTTCACGTGCAATACAAGCCAAGT | 1080 a.u.
CTTCTGTAAATTTGATTCGTGGGTGGACGCGCCCCG | 91 a.u.

Study 4 — technique: RNA Bind-n-Seq; form: RNA; medium: in vitro; tested at: 100 nM; relative to: input RNA pool; direction: higher = stronger binding
Target: RING finger protein unkempt homolog, zinc fingers 1-6, SBP tag (UNK, Homo sapiens, UniProt Q9C0B0, residues 30-357)
Sequence of UniProt Q9C0B0 (30-357, looked up): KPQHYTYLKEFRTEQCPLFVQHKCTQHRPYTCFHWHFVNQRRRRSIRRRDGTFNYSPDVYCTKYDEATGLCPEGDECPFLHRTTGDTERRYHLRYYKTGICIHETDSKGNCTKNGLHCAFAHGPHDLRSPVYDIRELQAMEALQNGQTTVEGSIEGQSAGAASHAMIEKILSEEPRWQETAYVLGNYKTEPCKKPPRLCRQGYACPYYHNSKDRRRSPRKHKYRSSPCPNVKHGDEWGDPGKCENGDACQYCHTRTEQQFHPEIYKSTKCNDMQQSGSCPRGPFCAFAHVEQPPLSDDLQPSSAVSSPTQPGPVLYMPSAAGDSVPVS
Notes: RNA with constant flanks, vertebrate orthologous sites, ends assumed
All sequences stand within: GGGAGUUCUACAGUCCGACGAUC … CAACAGAGGAUUGAGCAUCA
Strand | bound/input enrichment
UAGUGGGUGCAGCAUAGAAACAUCCAAGGUACUGACUGCAGCUUACAUACUUCAUUAGUAUGAAAGUCACAGUUCUCUAUGCGAAGAUACAUAUCUUUAAGUAAAUUACGUCUUUAACUU | 0.467 ratio
CUGUGUGUGGUGCAGCGUGCUCUGUACCAGUGCUCACCAUCCCUUCAUAUCAACUGUCCCUAGUUAUAGCAGUUUAAUAUUUUUAAAAGUUUUACAUUGCUGUAUAUUCAAAGAUUUGUU | 0.395 ratio
AUUCAUUUGAUUAAAAAUUAUUUAGAUAAGAAAUUAUUACUGUUUAUCUUUGCUUUCAGAUAACGUAUCCUAUUUUUUAUCCAUUUUGCAAAAUACCUCUUGUGUGUGGUUUCUUAACCU | 0.501 ratio
UGCUCGCCUUAGAGCAGUUCCCCCCACCCACCCACCCCUUUUUUUCCUUCAUUUUGGUUUCAGGGCUGGGUGGGUUGUGGCACACACCUCUGAGGCCAGAGCUGUCUGGUUCACCUUGUG | 0.181 ratio
UAAUUCAAUGGUUGAAGGCUCAGAACUCAAGAAGGUUCGCUCCAACUCUAGAAUUUACCACCGAUAUUUUCUCUUAGAUGCUGAUAUGCAGUCUCUGAGAUGGGAACCAUCCAAGAAGGA | 0.269 ratio
CUCUCUUAGCGAUAGUAUUCCAUCUGUAGCAGAUUCCCACUCGAGUCACUUUUCUGAGUUCAGUUGCUCAGAUAUGGAGAGUAUGAAAACUUCCUGUAGCCACGGUUCCAGCGACUAUCA | 0.486 ratio
AAUCAGUAGAAUUCCAUAAUACUAAAGUUGCAGUUGAAAGGAUAUCCAAGUAUGUGUUGGUAGUUACUAAAAGAAUUAUAGCUGUUAUUGCCUUGUAUUUAUAGCUCUUGUUUCAGGUUU | 0.721 ratio
UUUAAAUCUCUUCUCCCCUGUCCUGAUUUUAAAAGCCCCGCUUUUUUAAUUUUCUUUUUUUAGGCAUAUGUAGUAAUAUUAGAAACAUUUAAUUUGGGAAACUUUGAUUCUUAAAAGCGA | 0.712 ratio

A few entries again (study 1):
Substitution | relative binding score [%]
A170L | -9.49
L169G | -1.81
I133H | 21
I33L | 3.56
H34Q | 28.5
